Experimental data from different studies.
Medium: plasma
Route: oral

COc1cccc(-c2ccc(NC(=O)C3=C(C(=O)O)CCC3)c(F)c2)c1 has a Cmax of 3.37 µg/mL (male human; 20 mg, single dose, fasted, healthy volunteers).
The Cmax of CCCOc1ccc([C@H]2CNC(=O)N2c2ccc3[nH]cnc3c2)cc1 is reported as 2.15 µg/mL (human; 400 mg, single dose, fasted).
Nc1ncc(-c2cnn(CCO)c2)c2scc(-c3ccc(NC(=O)Nc4cccc(F)c4)cc3)c12 has a Cmax of 0.115 µg/mL (human; 80 mg, patients).
For CNCc1ccc(-c2[nH]c3cc(F)cc4c3c2CCNC4=O)cc1, the Cmax was 0.288 µg/mL (human; 160 mg, multiple doses, once daily, steady state, patients).
The Cmax of CS(=O)(=O)n1cc2c(n1)CN([C@H]1CO[C@H](c3cc(F)ccc3F)[C@@H](N)C1)C2 is reported as 0.223 µM (male human; 10 mg, single dose, fed).
With O=C(c1nc2n(n1)[C@H](c1ccccc1)C[C@@H]2F)C1CC1 the Cmax was 1.83 µg/mL (human; 225 mg, single dose, fasted, healthy volunteers).
The Cmax of CNC(=O)c1ccc(-c2cnc3ncc(Cc4ccc5ncccc5c4)n3n2)cc1F is reported as 4.41 µg/mL (human; 350 mg twice daily, multiple doses, steady state, patients).
C[C@@H]1CCC[C@H](n2cnc(-c3cc(Cl)ccc3-n3cc(Cl)nn3)cc2=O)c2cc(ccn2)-c2c(cnn2C(F)F)NC1=O gave a Cmax of 0.337 µg/mL (human; 60 mg, single dose, fasted, healthy volunteers).
Nc1ccc(-c2nc([C@H]3CCc4cc(-c5cc(Cl)ccc5-n5cnnn5)cc(=O)n43)c(F)[nH]2)c(F)n1 has a Cmax of 1.39 µg/mL (human; 150 mg, single dose, fasted).
For C#C[C@]1(CO)O[C@@H](n2cnc3c(N)nc(F)nc32)C[C@@H]1O, the Cmax was 1.07 µM (human; 30 mg, single dose, fasted).
The Cmax of C[C@H](N)C(=O)N1C[C@H](CCCB(O)O)[C@](N)(C(=O)O)C1 is reported as 3.49 µg/mL (human; 150 mg twice daily, multiple doses, patients).
For CCCCCN1C[C@H](O)[C@@H](O)[C@H](O)[C@@H]1CO, the Cmax was 2.27 µg/mL (male human; 300 mg, single dose, fed, healthy volunteers).

Repeated from above:
With O=C(c1nc2n(n1)[C@H](c1ccccc1)C[C@@H]2F)C1CC1 the Cmax was 1.83 µg/mL (human; 225 mg, single dose, fasted, healthy volunteers).
